Experimental data from different studies.
Protocols differ between the studies behind these lines.

`CC1COC2=C1C(=O)C(=O)c1c2ccc2c1C(OC(=O)CNC(=O)C(N)CCC(=O)O)CCC2(C)C` (mixture of isomers) gave an MIC of 63 µM (Cutibacterium acnes; GDMCC 1.243; 48 h, anaerobic).
For `CC[C@H](C)[C@H](NC(=O)[C@H](CCCCN)NC(=O)[C@H](CCCCN)NC(=O)[C@H](Cc1ccccc1)NC(=O)[C@H](Cc1ccccc1)NC(=O)[C@H](CCCCN)NC(=O)[C@H](CCCCN)NC(=O)[C@H](Cc1ccccc1)NC(=O)[C@H](CCCNC(=N)N)NC(=O)[C@@H](N)CCCCN)C(=O)N[C@@H](CCCCN)C(=O)N[C@@H](CCCCN)C(=O)N[C@@H](CO)C(=O)N[C@H](C(=O)N[C@@H](CCCCN)C(=O)N[C@@H](CCCCN)C(=O)N[C@@H](CCCNC(=N)N)C(=O)N[C@H](C(=O)N[C@@H](CCCCN)C(=O)N[C@@H](CCCCN)C(=O)N[C@@H](CC(C)C)C(=O)N[C@@H](Cc1ccccc1)C(=O)N[C@@H](CCCCN)C(=O)N[C@@H](CCCCN)C(=O)N1CCC[C@H]1C(=O)N[C@@H](CCCNC(=N)N)C(=O)N[C@H](C(=O)N[C@H](C(=O)N1CCC[C@H]1C(=O)N[C@H](C(=O)N[C@@H](CO)C(=O)N[C@H](C(=O)N1CCC[C@H]1C(=O)N[C@@H](Cc1ccccc1)C(=O)O)[C@@H](C)CC)[C@@H](C)CC)[C@@H](C)CC)C(C)C)C(C)C)C(C)C`, the MIC was 4 µg/mL (Pseudomonas aeruginosa; broth microdilution; P2 clinical isolate; 20 h).
For `CC[C@H](C)[C@@H]1NC(=O)[C@H](CCCNC(=N)N)NC(=O)[C@H]([C@@H](C)O)NC(=O)[C@H](Cc2c[nH]c3ccccc23)NC(=O)[C@H](Cc2ccccc2)NC(=O)[C@H](Cc2c[nH]c3ccccc23)NC(=O)[C@H](CCCNC(=N)N)NC(=O)[C@H](CCCNC(=N)N)NC(=O)[C@H](CCCNC(=N)N)NC(=O)[C@H](Cc2ccccc2)NC(=O)CNC(=O)[C@H](CCCCN)NC(=O)[C@@H](NC(=O)[C@H](CCCNC(=N)N)NC(=O)CNC(=O)CN)CSSC[C@@H](C(N)=O)NC1=O`, the MIC was 1.5 to 3 µM (Botrytis cinerea; resazurin; synthetic fungal medium; added: KCl 100 mM).
With `CC(=O)N1CCN(c2ccc(OCC3COC(Cn4ccnc4)(c4ccc(Cl)cc4Cl)O3)cc2)CC1` (stereo not drawn) the MIC was 8 µM (Candida albicans; CGMCC 2.209; 48 h, drug alone).
With `CC[C@H](C)[C@H](N)C(=O)N[C@@H](CCCNC(=N)N)C(=O)N[C@H](C(=O)N[C@@H](Cc1c[nH]c2ccccc12)C(=O)N[C@@H](Cc1ccccc1)C(=O)N[C@H](C(=O)N[C@@H](CCCCN)C(=O)N[C@H](C(=O)N[C@@H](CCCNC(=N)N)C(=O)N[C@@H](CCCCN)C(=O)N[C@@H](CCSC)C(=O)N[C@@H](CCCCN)C(=O)N[C@@H](C)C(=O)N[C@H](C(=O)N[C@@H](Cc1ccc(O)cc1)C(=O)N[C@@H](Cc1c[nH]cn1)C(=O)N[C@H](C(N)=O)[C@@H](C)O)[C@@H](C)CC)C(C)C)[C@@H](C)CC)C(C)C` the MIC was under 3.1 µM (Enterobacter sp.; broth dilution; KCTC 2625).
`CC[C@H](C)[C@@H]1NC(=O)[C@H](CO)NC(=O)[C@H](CCCCN)NC(=O)[C@@H]2CSSC[C@@H](C(=O)N[C@@H](Cc3ccc(O)cc3)C(N)=O)NC(=O)[C@H](CCCCN)NC(=O)[C@@H]3CSSC[C@H](NC(=O)[C@H](CCCNC(=N)N)NC(=O)[C@H](CC(C)C)NC(=O)[C@H](CC(=O)O)NC(=O)[C@H](CC(=O)O)NC(=O)[C@H](CCC(=O)O)NC(=O)[C@H](CC(N)=O)NC(=O)[C@H](Cc4c[nH]c5ccccc45)NC(=O)C(C)(CC)NC(=O)CNC(=O)[C@H](CC(N)=O)NC(=O)[C@@H](NC(=O)CNC(=O)[C@H](Cc4ccccc4)NC(=O)CN)CSSC[C@H](NC(=O)[C@H](Cc4ccc(O)cc4)NC(=O)CNC(=O)CNC(=O)[C@H](CCCCN)NC(=O)[C@H](Cc4ccc(O)cc4)NC(=O)[C@H]4CCCN4C(=O)[C@@H]4CCCN4C1=O)C(=O)N[C@@H](C)C(=O)N[C@@H](CCCCN)C(=O)N1CCC[C@@H]1C(=O)NCC(=O)N[C@@H](Cc1ccccc1)C(=O)N[C@@H](C(C)C)C(=O)N3)C(=O)N[C@@H](Cc1c[nH]cn1)C(=O)N[C@@H](CC(N)=O)C(=O)N[C@@H](Cc1c[nH]cn1)C(=O)N2` (stereo partly drawn) gave an MIC of 1 µM (Streptococcus pneumoniae; broth microdilution; BS-442; 18 h).
With `COc1ccc(C2=[N+]([O-])c3ccccc3N3CC(C)(C)CN=C23)cc1` the MIC was 1 to 8 µg/mL (Clostridioides difficile).
`CC[C@H](C)[C@H](NC(=O)[C@H](Cc1c[nH]c2ccccc12)NC(=O)[C@H](Cc1ccc(O)cc1)NC(=O)[C@H](CCCCN)NC(=O)[C@H](CC(C)C)NC(=O)[C@@H](N)CO)C(=O)N[C@@H](CCCNC(=N)N)C(=O)N[C@@H](Cc1ccc(O)cc1)C(=O)N[C@@H](CCCCN)C(=O)N[C@@H](CCCNC(=N)N)C(=O)N[C@@H](CCC(N)=O)C(=O)NCC(=O)N[C@@H](C)C(=O)N[C@@H](C)C(=O)N[C@@H](CCCNC(=N)N)C(=O)N[C@@H](Cc1ccccc1)C(N)=O` gave an MIC of 6.3 µM (Salmonella typhimurium; broth dilution; SL1344).
The MIC of `COc1ccc(C2=[N+]([O-])c3ccccc3N3CCCN=C23)cc1` is reported as 0.25 to 8 µg/mL (Clostridioides difficile).
`CCCCCCCC(=O)NCCCC[C@H](NC(=O)CCCCCCC)C(=O)N[C@@H](CCCCNC(=O)CCCCCCC)C(=O)NCC(=O)NCC(=O)NCC(=O)N[C@@H](CS)C(=O)N[C@@H](CCCNC(=N)N)C(=O)N[C@@H](CCCCN)C(=O)N1CCC[C@H]1C(=O)N[C@@H](CS)C(=O)N[C@@H](CCCNC(=N)N)C(=O)N[C@@H](CCCCN)C(=O)N1CCC[C@H]1C(N)=O` gave an MIC of 4 µM (Candida tropicalis; broth microdilution; CGMCC 2.197, RPMI-1640; 48 h, 30 °C).
With `C[N+]1=C2C(c3ccc([N+](=O)[O-])cc3)=[N+]([O-])c3ccccc3N2CCC1` the MIC was 0.25 to 1 µg/mL (Clostridioides difficile).
With `CC[C@H](C)[C@H](NC(=O)[C@H](C)NC(=O)CNC(=O)[C@H](C)NC(=O)[C@H](CCCCN)NC(=O)[C@H](CO)NC(=O)[C@H](C)NC(=O)[C@H](CCSC)NC(=O)CN)C(=O)N[C@@H](C)C(=O)NCC(=O)N[C@@H](CCCCN)C(=O)N[C@H](C(=O)N[C@@H](C)C(=O)N[C@@H](CCCCN)C(=O)N[C@H](C(=O)N[C@@H](C)C(=O)N[C@@H](CC(C)C)C(=O)N[C@@H](CCCCN)C(=O)N[C@@H](C)C(=O)N[C@@H](CC(C)C)C(N)=O)C(C)C)[C@@H](C)CC` the MIC was 2.5 µg/mL (Escherichia coli; 0370, nalidixic acid-resistant, minimal salts medium; 18 h, 37 °C).

A few entries again:
`CC[C@H](C)[C@@H]1NC(=O)[C@H](CO)NC(=O)[C@H](CCCCN)NC(=O)[C@@H]2CSSC[C@@H](C(=O)N[C@@H](Cc3ccc(O)cc3)C(N)=O)NC(=O)[C@H](CCCCN)NC(=O)[C@@H]3CSSC[C@H](NC(=O)[C@H](CCCNC(=N)N)NC(=O)[C@H](CC(C)C)NC(=O)[C@H](CC(=O)O)NC(=O)[C@H](CC(=O)O)NC(=O)[C@H](CCC(=O)O)NC(=O)[C@H](CC(N)=O)NC(=O)[C@H](Cc4c[nH]c5ccccc45)NC(=O)C(C)(CC)NC(=O)CNC(=O)[C@H](CC(N)=O)NC(=O)[C@@H](NC(=O)CNC(=O)[C@H](Cc4ccccc4)NC(=O)CN)CSSC[C@H](NC(=O)[C@H](Cc4ccc(O)cc4)NC(=O)CNC(=O)CNC(=O)[C@H](CCCCN)NC(=O)[C@H](Cc4ccc(O)cc4)NC(=O)[C@H]4CCCN4C(=O)[C@@H]4CCCN4C1=O)C(=O)N[C@@H](C)C(=O)N[C@@H](CCCCN)C(=O)N1CCC[C@@H]1C(=O)NCC(=O)N[C@@H](Cc1ccccc1)C(=O)N[C@@H](C(C)C)C(=O)N3)C(=O)N[C@@H](Cc1c[nH]cn1)C(=O)N[C@@H](CC(N)=O)C(=O)N[C@@H](Cc1c[nH]cn1)C(=O)N2` (stereo partly drawn) gave an MIC of 1 µM (Streptococcus pneumoniae; broth microdilution; BS-442; 18 h).
With `COc1ccc(C2=[N+]([O-])c3ccccc3N3CC(C)(C)CN=C23)cc1` the MIC was 1 to 8 µg/mL (Clostridioides difficile).
